Results from different studies.
Compare with care: the assays were run in different laboratories.
Cell line: MCF7
Effect on: cell growth or viability

CC(C)C[C@H](NC(=O)[C@H](CC(C)C)NC(=O)[C@H](CC(=O)O)NC(=O)[C@H](CCCCN)NC(=O)[C@H](Cc1ccccc1)NC(=O)CN)C(=O)N[C@@H](CCCCN)C(=O)N[C@H]1CSCc2cccc(c2)CSC[C@@H](C(=O)N[C@@H](CC(C)C)C(=O)N[C@H](C(=O)N[C@@H](CCCCN)C(=O)N[C@H](C(=O)N[C@H](C(=O)N[C@@H](CC(C)C)C(=O)N[C@@H](Cc2ccccc2)C(N)=O)C(C)C)[C@@H](C)O)C(C)C)NC(=O)[C@H](CCCCN)NC(=O)[C@H](C)NC(=O)[C@H](C)NC1=O
IC50 (CCK-8): 4.9 µM

C[C@H]1O[C@@H](O[C@H]2CC[C@@]3(C)[C@H](CC[C@@H]4[C@@H]3C[C@@H](O)[C@]3(C)[C@@H](C5=CC(=O)OC5)CC[C@]43O)C2)C[C@H](O)[C@@H]1O[C@@H]1O[C@H](CO)[C@@H](O)[C@H](O)[C@H]1O
IC50 (MTT; 48 h): 0.38 µM

Cc1cc(C)c(N2CCN(c3c(C)cc(C)cc3C)C2=[Se])c(C)c1.[Cl][Ag]
IC50 (MTT; 72 h): 2.6 µM

CC[C@H](C)[C@@H]1NC(=O)[C@H](CCCCN)NC(=O)[C@H](CCCCN)NC(=O)[C@H](C)NC(=O)[C@H](C(C)C)NC(=O)[C@H](C)NC(=O)[C@H](CC(C)C)NC(=O)[C@H](CC(C)C)NC(=O)[C@H](C)NC(=O)[C@H](CCCCN)NC(=O)[C@H](CC(C)C)NC(=O)[C@H](CC(N)=O)NC(=O)[C@H](CC(C)C)NC(=O)[C@@H](N)CSSC[C@@H](C(N)=O)NC(=O)[C@H](CC(C)C)NC1=O
IC50 (MTT): 13.7 µM

O=C1CC2(C1)C(=O)[O][Pt]1([Cl])([O]C(=O)C(Cl)Cl)([NH][C@@H]3CCCC[C@H]3[NH]1)[O]C2=O
IC50 (MTT): 7.96 µM

C=CC[P](c1ccccc1)(c1ccccc1)[Pt]([S]c1nc2ccccc2s1)([S]c1nc2ccccc2s1)[P](CC=C)(c1ccccc1)c1ccccc1
IC50 (MTT): 34.6 µM

CCc1ccc(C(c2c(C)nn(-c3ccccc3)c2O)c2c(C)nn(-c3ccccc3)c2O)cc1
IC50 (MTT; 48 h): 38.4 µM

CC[C@H](C)[C@@H]([C@@H](CC(=O)N1CCC[C@H]1[C@H](OC)[C@@H](C)C(=O)N[C@H](C)[C@@H](O)c1ccccc1)OC)N(C)C(=O)[C@@H](NC(=O)[C@H](C(C)C)N(C)C(=O)OCc1ccc(NC(=O)[C@H](CCCNC(N)=O)NC(=O)[C@@H](NC(=O)CCCc2cn(CC(=O)N[C@@H](CCCCNC(=O)CC[C@H](NC(=O)c3ccc(NCc4cnc5nc(N)[nH]c(=O)c5n4)cc3)C(=O)O)C(=O)NCCCC[C@H]3NC(=O)[C@H](CCCCN)NC(=O)[C@H](CCCNC(N)=O)NC(=O)[C@H](Cc4ccc(O)cc4)NC(=O)[C@@H](NC(=O)[C@H](Cc4ccc5ccccc5c4)NC(=O)[C@H](CCCNC(=N)N)NC(=O)[C@@H](N)CCCNC(=N)N)CSSC[C@@H](C(=O)N[C@@H](CCCNC(=N)N)C(N)=O)NC(=O)[C@H](CCCNC(N)=O)NC(=O)[C@H](CCCNC(=N)N)NC(=O)[C@H](Cc4ccc(O)cc4)NC(=O)[C@@H]4CCCN4C3=O)nn2)C(C)C)cc1)C(C)C
IC50 (CCK-8; 48 h): 2.01 µM

CCCCc1ccc(S(=O)(=O)N2CC2C(=O)OC)cc1 (centres unmarked)
IC50 (MTT; 48 h): 36 µM

COc1cc(C(c2c(C)nn(-c3ccccc3)c2O)c2c(C)nn(-c3ccccc3)c2O)cc(OC)c1OC
IC50 (MTT; 48 h): 5.45 µM

CC1(C)OC2C(COP(=O)(O)O)OC(n3cnc4c(=O)[nH]c(NC(=O)c5ccccc5)nc43)C2O1 (centres unmarked)
IC50: 6.27 µM

For quick reference, copied from above:
COc1cc(C(c2c(C)nn(-c3ccccc3)c2O)c2c(C)nn(-c3ccccc3)c2O)cc(OC)c1OC
IC50 (MTT; 48 h): 5.45 µM
